Measurements gathered from unrelated publications.

With C[C@@H](Cn1ccc(-c2ccc(C#N)c(Cl)c2)n1)NC(=O)c1cc([C@@H](C)O)[nH]n1 the tmax was 1.01 h (human, fasted; oral, 300 mg 14C-darolutamide solution, median).
CC(C)c1nc(N(C)S(C)(=O)=O)nc(-c2ccc(F)cc2)c1/C=C/[C@@H](O)C[C@@H](O)CC(=O)O has a tmax of 4.5 h (human, plasma; oral, 10 mg, day 1, compound alone, DDI study).
With CNC(=O)n1ccc2cc(Oc3ccnc(NC(=O)c4ccc(C5CCN(CCO)CC5)cc4)c3)c(OCCOC)cc21 the tmax was 4 h (healthy human, plasma; oral, 35 mg, high-fat meal, median).
For Cc1cc(Nc2ccc(S(F)(F)(F)(F)F)cc2)n2nc(C(C)(F)F)nc2n1, the tmax was 6 h (LC-MS/MS; human vivax malaria patients, plasma; oral, 400 mg, median).
The tmax of COc1cc(N2CCC(N3CCN(C)CC3)CC2)ccc1Nc1ncnc(Nc2ccccc2S(=O)(=O)C(C)C)n1 is reported as 2.29 h (human, plasma; oral, 200 mg, day 1).
CC(=O)c1cc(C(=O)N[C@@H](C)Cn2ccc(-c3ccc(C#N)c(Cl)c3)n2)[nH]n1 has a tmax of 0.5 h (healthy male human, plasma; intravenous infusion, 100 µg 14C-labelled, 15 min infusion, microtracer, median).
Cc1ccc([C@@H]2O[C@H](CO)[C@@H](O)[C@H](O)[C@H]2O)cc1Cc1ccc(-c2ccc(F)cc2)s1 gave a tmax of 3.2 h (human, maintenance hemodialysis patients; oral, 100 mg once daily, steady state, mean).
For CN(C(=O)C(C)(C)c1cc(C(F)(F)F)cc(C(F)(F)F)c1)c1cnc(N2C[C@H]3COCCN3C[C@H]2CO)cc1-c1ccc(F)cc1[14CH3], the tmax was 2 h (refers to: total radioactivity; human, whole blood; oral, 120 mg).
For O=C(COc1ccc(Cl)cc1)NC12CC(c3nnc([C@H]4C[C@@H](OC(F)(F)F)C4)o3)(C1)C2, the tmax was 23.8 h (healthy human both sexes, plasma; oral, 200 mg once daily, day 1, median fasted).
N#Cc1ccc2c(c1)[C@H]1CCCN(C(=O)c3ccc4[nH]cnc4c3)[C@H]1C2 gave a tmax of 0.667 h (human, plasma; oral, 20 mg once daily, after first dose, median).
The tmax of O=C(Nc1cnccc1Cl)N1CCN(Cc2ccc3c(c2)OC(F)(F)O3)CC1 is reported as 1 h (human healthy young women, plasma; oral, 100 mg once daily, day 10, multiple dose median).

For quick reference, copied from above:
CC(C)c1nc(N(C)S(C)(=O)=O)nc(-c2ccc(F)cc2)c1/C=C/[C@@H](O)C[C@@H](O)CC(=O)O has a tmax of 4.5 h (human, plasma; oral, 10 mg, day 1, compound alone, DDI study).
